Results pooled from the literature.
Lines come from different studies, so protocols differ. ± gives the spread as reported.
Route: oral

`O=c1[nH]c(=O)c(Cc2cccc(C(F)(F)F)c2)c([C@H]2CC[C@H](c3ccccc3)CC2)[nH]1` has an AUC(0-24) of 896 ng·h/mL (human, plasma; 150 mg once daily, day 1, geometric mean).
With `CCS(=O)(=O)N1CC(CC#N)(n2cc(-c3ncnc4[nH]ccc34)cn2)C1` the AUC(0-24) was 740 ng·h/mL (healthy Chinese human subjects, plasma; 10 mg, single dose, mean).
For `CC(C)[C@H](N)C(=O)NCCCS(=O)(=O)O`, the AUC(0-24) was 13800 ± 2220 ng·h/mL (human, plasma; 340 mg capsule, day 14, fed, multiple dosing).
For `CC(C)(Sc1ccncc1-c1ccc(C#N)c2ccccc12)C(=O)O`, the AUC(0-24) was 107 ng·h/mL (human, plasma; 10 mg once daily, day 14, added: febuxostat 40 mg once daily).
The AUC(0-24) of `CC(C)[C@@H](CS(=O)(=O)C(C)C)N1C(=O)[C@@](C)(CC(=O)O)C[C@H](c2cccc(Cl)c2)[C@H]1c1ccc(Cl)cc1` is reported as 1980 ng·h/mL (healthy human; 60 mg single dose, old tablet, fasted).
The AUC(0-24) of `CC(C)(Sc1ccncc1-c1ccc(C#N)c2ccccc12)C(=O)O` is reported as 33.8 ng·h/mL (human, male, Japanese, plasma; 2.5 mg, day 6, fed, single dose).
For `C=C(C)[C@@H]1CC[C@]2(NCCN3CCS(=O)(=O)CC3)CC[C@]3(C)[C@H](CC[C@@H]4[C@@]5(C)CC=C(C6=CC[C@@](CF)(C(=O)O)CC6)C(C)(C)[C@@H]5CC[C@]43C)[C@@H]12`, the AUC(0-24) was 8260 ng·h/mL (human, plasma; 200 mg multiple doses, day 1).
`CC(C)c1nc(CN(C)C(=O)N[C@H](C(=O)N[C@@H](Cc2ccccc2)C[C@H](O)[C@H](Cc2ccccc2)NC(=O)OCc2cncs2)C(C)C)cs1` gave an AUC(0-24) of 5210 ng·h/mL (HIV-infected humans, plasma; 100 mg once daily, geometric mean, added: darunavir 900 mg once daily, with abacavir).
The AUC(0-24) of `O=c1[nH]c(=O)c2c[nH]nc2[nH]1` is reported as 255000 ng·h/mL (human male, plasma; 300 mg once daily, geometric LS mean).
For `CCN1C(=O)CNc2ncc(-c3ccc(-c4nc[nH]n4)nc3C)nc21`, the AUC(0-24) was 1360 ng·h/mL (LC-MS, noncompartmental; human, plasma; 15 mg twice daily, first dose).
With `O=C(c1ccc(F)c(F)c1Nc1ccc(I)cc1F)N1CC(O)([C@@H]2CCCCN2)C1` the AUC(0-24) was 10800 ng·h/mL (human, plasma; 100 mg, steady state).
With `Cc1nc(Nc2ncc(C(=O)Nc3c(C)cccc3Cl)s2)cc(N2CCN(CCO)CC2)n1` the AUC(0-24) was 90.6 ± 38.1 ng·h/mL (human, plasma; 100 mg single dose, day 6 fasted, arithmetic mean, added: omeprazole 40 mg daily steady state, 10 h before).

Excerpt of the above:
For `CC(C)(Sc1ccncc1-c1ccc(C#N)c2ccccc12)C(=O)O`, the AUC(0-24) was 107 ng·h/mL (human, plasma; 10 mg once daily, day 14, added: febuxostat 40 mg once daily).
